Results gathered from unrelated publications.
Compare with care: the assays were run in different laboratories. ± gives the spread as reported.
GSK3B: Glycogen synthase kinase-3 beta (GSK3B, Homo sapiens, UniProt P49841)
Chain of UniProt P49841 (whole entry, looked up): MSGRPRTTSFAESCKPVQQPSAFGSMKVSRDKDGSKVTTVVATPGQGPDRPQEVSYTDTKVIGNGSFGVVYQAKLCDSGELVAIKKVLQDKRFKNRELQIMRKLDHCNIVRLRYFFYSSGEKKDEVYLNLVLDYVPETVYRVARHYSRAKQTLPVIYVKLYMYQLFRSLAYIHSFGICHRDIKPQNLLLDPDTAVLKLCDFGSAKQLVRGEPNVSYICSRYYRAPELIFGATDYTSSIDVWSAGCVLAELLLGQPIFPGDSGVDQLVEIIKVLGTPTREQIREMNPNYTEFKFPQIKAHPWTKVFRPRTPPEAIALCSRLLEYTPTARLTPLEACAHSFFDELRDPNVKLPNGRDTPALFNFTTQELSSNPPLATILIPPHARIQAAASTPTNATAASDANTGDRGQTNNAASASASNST
UCHL1: Ubiquitin carboxyl-terminal hydrolase isozyme L1 (UCHL1, Homo sapiens, UniProt P09936)
Chain of UniProt P09936 (whole entry, looked up): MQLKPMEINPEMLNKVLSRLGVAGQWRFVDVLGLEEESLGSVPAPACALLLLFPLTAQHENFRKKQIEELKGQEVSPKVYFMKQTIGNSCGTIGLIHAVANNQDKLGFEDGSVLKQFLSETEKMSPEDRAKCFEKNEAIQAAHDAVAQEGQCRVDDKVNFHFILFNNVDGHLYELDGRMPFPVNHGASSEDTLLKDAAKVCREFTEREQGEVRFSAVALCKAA
GSK3B with Nav1.6: Glycogen synthase kinase-3 beta, with Nav1.6 (GSK3B, Homo sapiens, UniProt P49841)

COc1cc(/C=C/C(=O)CC(=O)/C=C/c2ccc(O)c(OC)c2)ccc1O  activity (GSK3B; concentration not given, cell-based): inactive
CC(NC(=O)C(C#N)=Cc1cccc(Cl)c1Cl)c1ccccc1 (centres unmarked)  labelling (UCHL1; covalent, intact protein LC-MS; 12.5 µM): 43.2%
C=CC(=O)N1CCC(COCC(=O)N2CCN(c3nc(-c4cnc(N)nc4C(F)F)nc(N4CCOC[C@@H]4C)n3)CC2)CC1  remaining binding (GSK3B; KINOMEscan; 1 µM): 99%
CNc1cccc2cc(C(=O)Nc3ccc(C(=O)O)cc3)c(=O)[nH]c12  inhibition (GSK3B; kinase activity, inhibitor; 10 µM): 3.1%
CN1CCN2c3ccccc3Cc3ccccc3C2C1 (centres unmarked)  inhibition (GSK3B; enzyme activity, inhibitor, ADP-Glo; 100 µM): no inhibition
COc1cc(C=C(C(=O)/C=C/c2ccc(O)c(OC)c2)C(=O)/C=C/c2ccc(O)c(OC)c2)ccc1O  activity (GSK3B; concentration not given, cell-based): inactive
NC(=O)C(c1ccccc1)(c1ccccc1)[C@@H]1CCN(CCc2ccc3c(c2)CCO3)C1  inhibition (GSK3B; enzyme activity, inhibitor, ADP-Glo; 100 µM): no inhibition
COc1ccc(F)cc1C(=O)NCc1ccc(-c2nn([C@@H](C)C(F)(F)F)c(N)c2C(N)=O)cc1  inhibition (GSK3B; target engagement, competitive chemoproteomics; human PBMCs; 1 µM): -76%
CCOC(=O)c1c(NC(=O)CNC(C)C)sc2c1CCCCC2  luminescence (GSK3B with Nav1.6; protein complex assembly, split-luciferase complementation; HEK293; concentration not given, with: CHIR99021 2 µM; reference: DMSO control): 58.7 ± 3.9%
O=C1NC(=O)/C(=C/c2ccc(-c3ccc(F)cc3O)o2)S1  remaining activity (GSK3B; enzyme activity; 10 µM): 10%
COc1cc(/C=C/C(=O)C(=Cc2ccccc2)C(=O)/C=C/c2ccc(O)c(OC)c2)ccc1O  activity (GSK3B; concentration not given, cell-based): inactive
Cc1c[nH]c(-c2cnc(NCCNc3ccc(C#N)cn3)nc2-c2ccc(Cl)cc2Cl)n1  luminescence (GSK3B with Nav1.6; protein complex assembly, split-luciferase complementation; HEK293; 2 µM; reference: DMSO control): 103 ± 2.6%
C#CC(C)(CC)NS(=O)(=O)c1cc(Cl)c(C)cc1OC (centres unmarked)  labelling (UCHL1; covalent, intact protein LC-MS; 12.5 µM): 9.11%
Cl.OC(CNCC(O)C1CCc2cc(F)ccc2O1)C1CCc2cc(F)ccc2O1 (centres unmarked)  inhibition (GSK3B; enzyme activity, inhibitor, ADP-Glo; 100 µM): no inhibition
O=C1Nc2ccccc2C12CC2c1ccccn1 (centres unmarked)  activity (GSK3B; concentration not given): active
Cn1sc(=O)n(Cc2ccccc2)c1=O  inhibition zone diameter (GSK3B; yeast expressing human GSK-3; 20 mM, 28 °C): 16.7 ± 1.41 mm
Nc1nc(Nc2ccccc2)sc1C(=O)c1c(F)cccc1F  remaining activity (GSK3B; enzyme activity, inhibitor; 10 µM): 4%

A few entries again:
CC(NC(=O)C(C#N)=Cc1cccc(Cl)c1Cl)c1ccccc1 (centres unmarked)  labelling (UCHL1; covalent, intact protein LC-MS; 12.5 µM): 43.2%
C=CC(=O)N1CCC(COCC(=O)N2CCN(c3nc(-c4cnc(N)nc4C(F)F)nc(N4CCOC[C@@H]4C)n3)CC2)CC1  remaining binding (GSK3B; KINOMEscan; 1 µM): 99%
